# Measurements gathered from unrelated publications.
# Parts stem from different laboratories: compare values within a part only.

# Set 1
# Target: Prothrombin, mature alpha-thrombin (F2, Homo sapiens, UniProt P00734)
# Technique: aptamer microarray, sandwich
# Molecule type: DNA with 2'F-ANA
# Matrix: in vitro
# Tested at: 200 nM
# Setting: whole 15-mer aptamer, many near background
# Added: Cy3 exosite-II aptamer, 400 nM
# Direction: higher = stronger binding
# Oligonucleotide: GGTTGGTGTGGTTGG
Modification,mean fluorescence intensity [a.u.]
2'F-ANA at 1 2 5 7 9 10 13,41.9
2'F-ANA at 1 2 4 5 7 8 11 12 14,79.6
2'F-ANA at 2 7 8 11 13,423
2'F-ANA at 1 2 3 5 7 8 13,55.5
2'F-ANA at 1 2 3 5 7 10 11 12 13,53
2'F-ANA at 1 2 4 5 6 9 11 15,50.4
2'F-ANA at 3 4 8 12 15,1200
2'F-ANA at 1 4 5 7 9 13,47.6
2'F-ANA at 1 5 8 9 11 12 15,92.3
2'F-ANA at 1 4 6 8 10 11 12 13 14 15,51.3

# Set 2
# Target: Sal-like protein 4, full length isoform B (SALL4, Homo sapiens, UniProt Q9UJQ4-2, residues 1-616)
# Technique: universal PBM
# Molecule type: double-stranded DNA, one strand shown
# Matrix: in vitro
# Tested at: not given
# Setting: 8-mer, flanks averaged, mean of replicates
# Direction: higher = stronger binding
# Target sequence (chain): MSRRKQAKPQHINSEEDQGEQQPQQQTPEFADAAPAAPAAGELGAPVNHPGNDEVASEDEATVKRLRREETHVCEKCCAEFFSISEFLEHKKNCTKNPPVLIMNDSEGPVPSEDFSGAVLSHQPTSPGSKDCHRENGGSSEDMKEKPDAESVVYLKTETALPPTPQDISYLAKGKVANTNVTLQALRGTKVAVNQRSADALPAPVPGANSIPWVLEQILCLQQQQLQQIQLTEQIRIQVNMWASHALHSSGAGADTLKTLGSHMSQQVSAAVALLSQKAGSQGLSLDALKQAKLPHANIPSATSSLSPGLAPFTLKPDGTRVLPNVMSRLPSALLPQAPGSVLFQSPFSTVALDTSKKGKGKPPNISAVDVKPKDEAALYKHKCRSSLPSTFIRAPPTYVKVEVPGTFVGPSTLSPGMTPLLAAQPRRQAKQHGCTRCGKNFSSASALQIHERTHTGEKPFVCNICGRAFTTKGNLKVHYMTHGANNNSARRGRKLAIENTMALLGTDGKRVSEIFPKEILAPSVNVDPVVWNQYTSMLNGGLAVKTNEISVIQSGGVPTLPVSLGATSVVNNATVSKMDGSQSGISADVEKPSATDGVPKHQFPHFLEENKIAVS
Oligonucleotide,E-score
TCGACGAA,-0.00937
CCGCAGCC,-0.297
CTGGTGTA,-0.0381
GACGTAAC,0.0126
ATTGTCTA,0.182
AATTGAGG,0.0341
GACGGGTA,-0.116
AGGCCGAT,-0.0775

# Set 3
# Target: Transcriptional repressor CTCF (CTCF, Homo sapiens, UniProt P49711, residues 1-727, full length assumed)
# UniProt P49711, sequence (whole entry, looked up): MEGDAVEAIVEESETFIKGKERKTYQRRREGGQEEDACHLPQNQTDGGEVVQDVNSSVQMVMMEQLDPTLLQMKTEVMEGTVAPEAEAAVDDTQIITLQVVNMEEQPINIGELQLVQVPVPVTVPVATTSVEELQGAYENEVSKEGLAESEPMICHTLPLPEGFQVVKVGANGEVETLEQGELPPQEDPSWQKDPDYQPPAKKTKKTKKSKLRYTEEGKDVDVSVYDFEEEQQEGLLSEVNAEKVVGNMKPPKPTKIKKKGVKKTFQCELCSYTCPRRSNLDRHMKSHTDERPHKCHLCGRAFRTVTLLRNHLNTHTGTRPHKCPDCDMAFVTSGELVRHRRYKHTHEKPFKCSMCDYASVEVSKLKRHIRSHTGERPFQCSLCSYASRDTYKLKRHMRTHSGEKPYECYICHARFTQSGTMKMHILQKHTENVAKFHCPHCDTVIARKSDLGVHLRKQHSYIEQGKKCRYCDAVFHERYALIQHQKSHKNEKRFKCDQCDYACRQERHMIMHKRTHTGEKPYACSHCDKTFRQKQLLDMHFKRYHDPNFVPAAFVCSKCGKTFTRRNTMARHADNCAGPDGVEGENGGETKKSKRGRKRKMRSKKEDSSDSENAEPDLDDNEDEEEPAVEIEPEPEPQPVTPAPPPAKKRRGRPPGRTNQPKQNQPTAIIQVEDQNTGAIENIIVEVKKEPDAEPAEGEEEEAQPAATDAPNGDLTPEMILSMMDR
# Technique: protein-binding microarray
# Molecule type: double-stranded DNA, one strand shown
# Matrix: in vitro
# Tested at: not given
# Setting: k-mer, scored over probes, only values ≥0.25
# Direction: higher = stronger binding
Oligonucleotide,E-score
GCGCCCCC,0.485
AACGCGCT,0.256
CATTATAC,0.275
ATATAAAC,0.41
TAATACCA,0.255
GAAAAAAA,0.326
ATATTATG,0.333
CACATTAC,0.301

# Further values, each from its own experiment
Substance,target,assay,system,conditions,how to read,endpoint,result
"PhoQ, residues 284 288 289 292 302 303 DDMDFR","PhoP, residues 12 14 15 18 19 NQFFI (Escherichia coli, UniProt P23836)","Sort-seq, measured: YFP reporter",E. coli,"PhoQ-PhoP variant library, added: 10 µM Mg2+","baseline: high Mg2+ state, higher = stronger signaling",fold induction,1.04

# Repeated from above (set 3):
Oligonucleotide,E-score
CATTATAC,0.275
ATATAAAC,0.41
